# Measurements from different studies.
# Each numbered part is a random draw from the data of one study; scales do not carry over between parts. Positions count from the first letter of the parent shown.

# Study 1
# Target: ABI1, truncated, D143A, DHFR fusion (Arabidopsis thaliana)
# Method: DHFR PCA, deep sequencing
# Medium: yeast
# Setting: methotrexate growth selection, single substitutions
# Together with: (+)-ABA 0.39 µM
# Baseline: wild-type fitted maximum
# Reading: higher = stronger binding
# Starting sequence: PYL1, truncated, DHFR fusion (Arabidopsis thaliana); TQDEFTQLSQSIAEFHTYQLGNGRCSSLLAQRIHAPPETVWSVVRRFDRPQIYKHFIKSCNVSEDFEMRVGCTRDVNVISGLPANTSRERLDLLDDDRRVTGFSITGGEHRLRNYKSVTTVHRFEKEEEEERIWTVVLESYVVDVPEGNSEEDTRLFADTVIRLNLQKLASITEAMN
Variant,relative binding score [%]
G107M,-8.69
S117A,3.36
C72M,44.4
F15K,-11.8
K168W,35.7
N85Q,67
I52H,12.5
E130A,46

# Study 2
# Target: RNA binding protein fox-1 homolog 2, RRM domain, GST-SBP tag (RBFOX2, Homo sapiens, UniProt O43251-10, residues 100-194)
# Method: RNA Bind-n-Seq
# Molecule type: RNA
# Medium: in vitro
# Concentration: 365 nM
# Setting: natural RNA segment, single round, ends assumed
# Baseline: no-protein control
# Reading: higher = stronger binding
# Construct (chain): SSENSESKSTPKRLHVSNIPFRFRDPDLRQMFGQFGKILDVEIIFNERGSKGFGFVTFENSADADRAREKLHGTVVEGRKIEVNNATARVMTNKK
Strand,RBNS enrichment (R)
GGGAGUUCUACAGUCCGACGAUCAUGUAUGUUAUAUAACAUUCAAAAGAAUUUUUUUCUUGAUUGAGAAAAGGAUACAAAAUGCAAAAUCCACAAUUUUGAUAACUGAAAAUUGCCAAUUGUUUUGCAGUACUUGGAAUUCUCGGGUGCCAA,0.348
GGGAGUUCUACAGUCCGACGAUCUACCCACUGGGCAGUGGGAAGGCCUACCGACUUACUUUAUCAUUGAGGGCUUACUGAUACAAUGAAAUGAGUUUCAUGACUUUUUUUUUUUUUAAACACUUUUUGAAAUAUGGAAUUCUCGGGUGCCAA,0.398
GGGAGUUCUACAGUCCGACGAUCUGCUCUUGCACCAAGUGCCUUCUGCAUCCCUCAGUCCAUCCGCGUACCAGUAGCCUCCCGUCCUAAUUCUGUUCAAUAUCAGUUGUUCCUAAUAAGUAGAAUACACUACUUGGAAUUCUCGGGUGCCAA,1.98
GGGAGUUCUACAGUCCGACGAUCUAAGUUUUUUUUAAAAAGCCUGUGUAUUUAUUUUAGAAUCAUGUUUUUCUGUAUAUUAACUUGGGGGAUAUCGUUAAUAUUUAGGAUAUAAGAUUUGAGGUCAGCCAUCUUGGAAUUCUCGGGUGCCAA,4.29
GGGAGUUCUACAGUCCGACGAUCAGUAGCAGGACCUUGUGCUAACCACAAACUGCACCUUCUCAGUACUCACAACCCCGAUCUGCAAGGUAUCGUUAAGGAAUGAGUAUCUUCAGUGUGGCAAAGGAGUAGUGUGGAAUUCUCGGGUGCCAA,0.559
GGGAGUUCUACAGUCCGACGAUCUGAUGGUGUUUAUGAACAUGCCGUAGUGCCUUUAUGGCCAGUUUGAGUCCUGCCUACUUUGACUUUUACGUUCCCAUUCCUGUGUUACCACCUUCCUCCCGAUUUGUUCAUGGAAUUCUCGGGUGCCAA,0.706
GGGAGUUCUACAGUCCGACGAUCCUCUCUCUCACACGCCUCUCUCCAAUAGACAGCUUGUAUUUGCAGUAUUUCAUAUUUAUAAAUAUGCGUUUAUUUAAAAGGAGAACAAAAGCUUGACUCUGAUUCACAGUUGGAAUUCUCGGGUGCCAA,0.382
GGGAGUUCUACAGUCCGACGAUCACUCGGACAACUUCCCAAGGCCGCCUCCUGCUAGCAAGAACAGAGUCCACCCUCCUCUGGAUAUUGGGGAGGGACGGAAGUGACAGGGUGUGGUGGUGGAGUGGGGAGCUUGGAAUUCUCGGGUGCCAA,0.8

# Study 3
# Target: Ras GTPase-activating protein-binding protein 1, RRM domain (G3BP1, Homo sapiens, UniProt Q13283)
# Sequence of UniProt Q13283 (whole entry, looked up): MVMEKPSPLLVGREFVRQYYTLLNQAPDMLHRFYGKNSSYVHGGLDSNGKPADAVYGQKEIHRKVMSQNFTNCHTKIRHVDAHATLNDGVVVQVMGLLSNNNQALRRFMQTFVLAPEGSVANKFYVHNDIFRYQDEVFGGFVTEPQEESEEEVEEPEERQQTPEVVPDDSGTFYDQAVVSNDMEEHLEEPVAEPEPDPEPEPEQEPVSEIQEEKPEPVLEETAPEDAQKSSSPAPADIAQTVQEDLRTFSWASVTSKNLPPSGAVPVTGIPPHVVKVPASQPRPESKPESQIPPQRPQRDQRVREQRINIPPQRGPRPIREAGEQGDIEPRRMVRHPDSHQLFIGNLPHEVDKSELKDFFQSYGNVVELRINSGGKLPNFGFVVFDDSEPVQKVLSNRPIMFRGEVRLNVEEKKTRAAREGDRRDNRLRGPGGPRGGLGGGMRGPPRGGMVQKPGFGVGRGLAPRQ
# Method: RNA Bind-n-Seq
# Molecule type: RNA
# Medium: in vitro
# Concentration: 1 µM
# Setting: whole 134-nt RNA, ends assumed
# Together with: 150 mM KCl
# Baseline: input library
# Reading: higher = stronger binding
Strand,log2 enrichment
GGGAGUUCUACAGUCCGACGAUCUCAAGUCCUGUGCUACACAUCGUAUGUACCGAAUCGGGAAAGGGUUUGGGUGGGAAAGUAUUAUGUUACGCCGUUCGGAUCUGCACUUCCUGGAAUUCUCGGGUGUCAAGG,0.684
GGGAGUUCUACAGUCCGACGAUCUGGGAGUUGGAUUUUGUUUAUUUUUUUAGCUCAUUUCCAGGGGUGGGAAUUUUUUUUUAAUAUGUGUCAUGAAUAAAGUUGUUUUUGAAAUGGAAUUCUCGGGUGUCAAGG,2.04
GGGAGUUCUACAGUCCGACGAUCGUCCUGUGCUACACAUCGUAUGUACCGAAUCAAAUUUUUAAACCCCCCCAAACCCAAAAAAGUAUUAUGUUACGCCGUUCGGAUCUGCACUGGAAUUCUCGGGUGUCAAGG,-0.504
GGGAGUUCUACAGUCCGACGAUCUCCUGUGCUACACAUCGUAUGUACCGAAUCAAACCCCCAAAUUUUUUUAAACCCCCAAAAAAGUAUUAUGUUACGCCGUUCGGAUCUGCAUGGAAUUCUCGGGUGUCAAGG,-0.69
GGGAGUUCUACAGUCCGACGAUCAGGCUAUGGAGGCUAUGAUGAUUACAAUGGCUAUAAUGAUGGCUAUGGAUUUGGGUCAGAUAGAUUUGGAAGAGGUAAGGUAAGAAUUGAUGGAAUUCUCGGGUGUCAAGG,-0.163
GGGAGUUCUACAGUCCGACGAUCGUCCUGUGCUACACAUCGUAUGUACCGAAUCGGGUUUUUGGGAAAAAAAGGGAAAGGGAAAGUAUUAUGUUACGCCGUUCGGAUCUGCACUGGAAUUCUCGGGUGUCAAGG,0.0427
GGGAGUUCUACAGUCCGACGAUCCACAGACAACACGCACCCACACAGACACAGAGGGAAGGGGUUGGGAUGGGGACAGGGUGCACAGCAGGGCGGGGUAGGACCCCAGCCCUUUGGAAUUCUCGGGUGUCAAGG,-0.474
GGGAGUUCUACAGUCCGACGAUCUCAAGUCCUGUGCUACACAUCGUAUGUACCGAAUCGGGCCGGGGCCGGGGCCGGGAAAGUAUUAUGUUACGCCGUUCGGAUCUGCACUUCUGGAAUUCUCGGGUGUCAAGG,-1.46
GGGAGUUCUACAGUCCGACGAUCUCAAGUCCUGUGCUACACAUCGUAUGUACCGAAUCGGAAAAAGGAGGUUUUUGGAAAGUAUUAUGUUACGCCGUUCGGAUCUGCACUUCCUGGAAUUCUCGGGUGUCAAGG,-0.143

# Mixed results
Substance,target,test,test system,setting,scale,quantity,value
"PhoQ, residues 284 288 289 292 302 303 SSCLAV","PhoP, residues 12 14 15 18 19 LHHSG (Escherichia coli, UniProt P23836)","Sort-seq, measured: YFP reporter",E. coli,"PhoQ-PhoP variant library, together with: 10 µM Mg2+","baseline: high Mg2+ state, higher = stronger signaling",fold induction,7.51

# A few entries again (study 3):
Strand,log2 enrichment
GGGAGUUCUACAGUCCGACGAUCGUCCUGUGCUACACAUCGUAUGUACCGAAUCAAAUUUUUAAACCCCCCCAAACCCAAAAAAGUAUUAUGUUACGCCGUUCGGAUCUGCACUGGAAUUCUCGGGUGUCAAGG,-0.504
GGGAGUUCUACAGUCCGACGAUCUCCUGUGCUACACAUCGUAUGUACCGAAUCAAACCCCCAAAUUUUUUUAAACCCCCAAAAAAGUAUUAUGUUACGCCGUUCGGAUCUGCAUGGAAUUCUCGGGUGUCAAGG,-0.69
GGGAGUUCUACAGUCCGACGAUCAGGCUAUGGAGGCUAUGAUGAUUACAAUGGCUAUAAUGAUGGCUAUGGAUUUGGGUCAGAUAGAUUUGGAAGAGGUAAGGUAAGAAUUGAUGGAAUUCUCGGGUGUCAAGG,-0.163
